Assay results collected from several papers.
Each numbered part is a random draw from the data of one study; scales do not carry over between parts. Several values in a cell are separate wells, animals, samples, runs or records.
UniProt Q8NE63, sequence (whole entry, looked up): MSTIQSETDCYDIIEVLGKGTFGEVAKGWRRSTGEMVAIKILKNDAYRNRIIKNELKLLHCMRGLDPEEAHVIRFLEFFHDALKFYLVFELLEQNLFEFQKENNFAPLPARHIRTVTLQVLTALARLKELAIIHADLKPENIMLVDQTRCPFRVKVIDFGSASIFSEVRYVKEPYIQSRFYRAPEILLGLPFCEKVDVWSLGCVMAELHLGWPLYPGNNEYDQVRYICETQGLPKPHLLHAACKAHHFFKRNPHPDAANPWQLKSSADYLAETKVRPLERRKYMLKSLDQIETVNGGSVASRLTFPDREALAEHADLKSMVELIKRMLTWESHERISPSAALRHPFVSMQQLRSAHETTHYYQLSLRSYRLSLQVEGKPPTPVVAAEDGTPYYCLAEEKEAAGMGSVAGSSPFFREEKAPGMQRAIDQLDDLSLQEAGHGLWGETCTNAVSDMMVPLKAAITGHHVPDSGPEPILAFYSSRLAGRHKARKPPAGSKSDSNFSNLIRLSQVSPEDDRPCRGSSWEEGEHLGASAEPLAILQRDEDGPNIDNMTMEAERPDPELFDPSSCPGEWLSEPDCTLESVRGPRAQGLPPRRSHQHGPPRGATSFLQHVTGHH
UniProt Q5S007, sequence (whole entry, looked up): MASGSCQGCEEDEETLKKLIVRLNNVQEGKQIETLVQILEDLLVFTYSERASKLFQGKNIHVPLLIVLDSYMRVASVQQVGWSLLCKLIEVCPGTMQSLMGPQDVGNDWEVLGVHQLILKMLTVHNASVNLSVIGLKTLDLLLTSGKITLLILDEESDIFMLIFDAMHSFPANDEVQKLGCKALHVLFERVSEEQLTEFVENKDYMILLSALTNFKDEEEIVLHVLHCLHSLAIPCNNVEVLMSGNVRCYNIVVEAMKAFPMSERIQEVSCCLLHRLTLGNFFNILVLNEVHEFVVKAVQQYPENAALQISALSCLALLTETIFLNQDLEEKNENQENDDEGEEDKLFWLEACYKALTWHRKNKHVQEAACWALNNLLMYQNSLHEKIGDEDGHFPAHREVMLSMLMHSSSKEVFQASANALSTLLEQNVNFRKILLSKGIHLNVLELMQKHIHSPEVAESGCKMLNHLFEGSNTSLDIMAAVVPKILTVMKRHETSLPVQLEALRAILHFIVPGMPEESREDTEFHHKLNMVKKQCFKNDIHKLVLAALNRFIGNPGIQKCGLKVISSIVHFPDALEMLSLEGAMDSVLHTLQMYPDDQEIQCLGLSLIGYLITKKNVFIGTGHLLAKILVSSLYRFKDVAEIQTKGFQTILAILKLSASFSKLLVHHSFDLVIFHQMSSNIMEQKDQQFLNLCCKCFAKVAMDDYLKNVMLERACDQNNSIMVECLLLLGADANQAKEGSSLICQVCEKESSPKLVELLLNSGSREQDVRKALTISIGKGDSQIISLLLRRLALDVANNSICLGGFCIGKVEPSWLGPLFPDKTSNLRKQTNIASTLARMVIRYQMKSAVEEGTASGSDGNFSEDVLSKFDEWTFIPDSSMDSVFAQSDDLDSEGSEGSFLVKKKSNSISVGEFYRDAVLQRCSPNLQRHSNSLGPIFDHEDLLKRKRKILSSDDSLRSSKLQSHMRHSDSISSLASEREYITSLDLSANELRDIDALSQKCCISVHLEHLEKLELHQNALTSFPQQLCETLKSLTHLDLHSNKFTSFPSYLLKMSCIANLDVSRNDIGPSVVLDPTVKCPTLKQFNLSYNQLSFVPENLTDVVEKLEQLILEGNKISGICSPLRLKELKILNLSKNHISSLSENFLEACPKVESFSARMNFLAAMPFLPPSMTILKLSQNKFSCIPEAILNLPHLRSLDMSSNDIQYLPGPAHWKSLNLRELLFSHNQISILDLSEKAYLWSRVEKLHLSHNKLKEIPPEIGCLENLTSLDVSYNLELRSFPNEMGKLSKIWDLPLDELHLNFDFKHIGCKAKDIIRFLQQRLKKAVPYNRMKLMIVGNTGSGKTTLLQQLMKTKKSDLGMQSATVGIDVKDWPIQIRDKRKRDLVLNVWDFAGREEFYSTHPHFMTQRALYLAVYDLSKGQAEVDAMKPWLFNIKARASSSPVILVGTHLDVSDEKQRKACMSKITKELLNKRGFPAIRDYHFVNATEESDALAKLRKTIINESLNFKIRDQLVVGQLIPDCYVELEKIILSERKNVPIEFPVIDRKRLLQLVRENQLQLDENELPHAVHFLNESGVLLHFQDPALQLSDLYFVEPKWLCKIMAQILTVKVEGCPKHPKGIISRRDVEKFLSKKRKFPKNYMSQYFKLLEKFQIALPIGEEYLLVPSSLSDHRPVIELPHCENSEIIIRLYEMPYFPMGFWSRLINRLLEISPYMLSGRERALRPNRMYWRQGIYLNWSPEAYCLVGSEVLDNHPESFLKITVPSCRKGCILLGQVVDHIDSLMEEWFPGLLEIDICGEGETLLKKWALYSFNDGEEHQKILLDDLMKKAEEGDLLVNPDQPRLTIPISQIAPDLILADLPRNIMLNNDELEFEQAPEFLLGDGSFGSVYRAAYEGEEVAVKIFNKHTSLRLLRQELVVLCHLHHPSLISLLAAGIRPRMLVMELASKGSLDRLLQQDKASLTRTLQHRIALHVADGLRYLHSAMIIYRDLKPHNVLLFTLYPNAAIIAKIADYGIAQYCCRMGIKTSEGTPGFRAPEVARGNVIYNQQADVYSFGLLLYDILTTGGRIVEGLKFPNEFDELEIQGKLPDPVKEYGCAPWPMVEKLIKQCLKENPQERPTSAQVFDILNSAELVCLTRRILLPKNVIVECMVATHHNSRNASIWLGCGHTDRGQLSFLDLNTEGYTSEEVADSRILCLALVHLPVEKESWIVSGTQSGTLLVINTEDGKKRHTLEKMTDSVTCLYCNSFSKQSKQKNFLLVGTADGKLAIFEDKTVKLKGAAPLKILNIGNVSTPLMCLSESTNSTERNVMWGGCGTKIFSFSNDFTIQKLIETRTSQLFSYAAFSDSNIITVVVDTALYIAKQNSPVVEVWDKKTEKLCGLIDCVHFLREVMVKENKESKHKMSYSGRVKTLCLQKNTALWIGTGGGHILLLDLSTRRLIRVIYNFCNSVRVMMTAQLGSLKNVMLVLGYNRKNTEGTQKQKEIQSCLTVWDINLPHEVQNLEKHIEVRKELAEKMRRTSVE
UniProt Q32MK0, sequence (whole entry, looked up): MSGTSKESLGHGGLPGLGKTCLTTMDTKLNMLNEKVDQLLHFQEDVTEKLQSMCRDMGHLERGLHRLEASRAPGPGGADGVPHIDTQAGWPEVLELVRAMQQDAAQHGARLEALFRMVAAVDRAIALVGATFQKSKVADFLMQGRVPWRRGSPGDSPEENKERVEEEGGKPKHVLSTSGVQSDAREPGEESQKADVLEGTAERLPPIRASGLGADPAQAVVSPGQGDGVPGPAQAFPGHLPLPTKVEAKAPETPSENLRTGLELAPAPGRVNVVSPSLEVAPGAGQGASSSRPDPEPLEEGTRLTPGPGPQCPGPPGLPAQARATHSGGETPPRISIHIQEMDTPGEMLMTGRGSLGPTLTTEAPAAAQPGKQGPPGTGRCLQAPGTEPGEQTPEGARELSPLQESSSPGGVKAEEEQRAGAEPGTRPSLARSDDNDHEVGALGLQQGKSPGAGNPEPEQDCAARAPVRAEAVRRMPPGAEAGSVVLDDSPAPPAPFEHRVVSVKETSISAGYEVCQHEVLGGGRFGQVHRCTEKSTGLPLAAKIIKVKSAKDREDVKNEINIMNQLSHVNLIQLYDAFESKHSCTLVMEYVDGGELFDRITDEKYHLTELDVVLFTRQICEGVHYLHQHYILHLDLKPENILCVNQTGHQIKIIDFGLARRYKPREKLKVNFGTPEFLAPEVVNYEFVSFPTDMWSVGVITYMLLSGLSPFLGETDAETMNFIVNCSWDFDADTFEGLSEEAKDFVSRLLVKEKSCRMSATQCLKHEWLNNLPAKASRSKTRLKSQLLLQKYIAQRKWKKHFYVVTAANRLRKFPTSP
UniProt Q8IU85, sequence (whole entry, looked up): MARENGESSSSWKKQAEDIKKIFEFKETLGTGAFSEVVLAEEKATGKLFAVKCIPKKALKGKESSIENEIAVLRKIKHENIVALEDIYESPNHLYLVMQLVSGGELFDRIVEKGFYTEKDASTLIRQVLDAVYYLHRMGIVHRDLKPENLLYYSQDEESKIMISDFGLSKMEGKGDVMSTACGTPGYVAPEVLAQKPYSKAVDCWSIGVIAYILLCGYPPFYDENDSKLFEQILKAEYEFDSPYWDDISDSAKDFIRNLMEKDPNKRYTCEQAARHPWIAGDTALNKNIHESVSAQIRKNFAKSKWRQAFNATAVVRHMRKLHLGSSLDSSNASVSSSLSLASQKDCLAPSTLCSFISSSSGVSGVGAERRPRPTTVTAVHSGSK

Block 1 — cell line: mouse MPNST tumor cells; technique: high-content immunofluorescence imaging; item: nuclear SOX9; tested at: 10 µM; time: 12 h; setting: mean of 2 replicates; relative to: DMSO control; reading: higher = more nuclear SOX9
| Compound | nuclear SOX9 intensity |
| --- | --- |
| C[C@@H]1C[C@H]2[C@@H]3C[C@H](F)C4=CC(=O)C=C[C@]4(C)[C@@]3(F)[C@@H](O)C[C@]2(C)[C@@]1(O)C(=O)COC(=O)C(C)(C)C | 91.3 % of DMSO |
| CN(C)Cc1cccc(N=C(c2ccccc2)c2c(O)[nH]c3cc(C(=O)N(C)C)ccc23)c1 | 114 % of DMSO |
| Nc1nc(NC2CC2)c2ncn([C@H]3C=C[C@@H](CO)C3)c2n1 | 108 % of DMSO and 115 % of DMSO and 119 % of DMSO |
| Cc1cccc(Nc2ccccc2C(=O)O)c1C | 101 % of DMSO |
| CCO[C@@H](Cc1ccc(OCCc2ccc(OS(C)(=O)=O)cc2)cc1)C(=O)O | 108 % of DMSO |

Block 2 — effect on: enzyme activity; mode: inhibitor; tested at: 10 µM
Target: Calcium/calmodulin-dependent protein kinase type II subunit alpha (CAMK2A, Homo sapiens, UniProt Q9UQM7)
UniProt Q9UQM7, sequence (whole entry, looked up): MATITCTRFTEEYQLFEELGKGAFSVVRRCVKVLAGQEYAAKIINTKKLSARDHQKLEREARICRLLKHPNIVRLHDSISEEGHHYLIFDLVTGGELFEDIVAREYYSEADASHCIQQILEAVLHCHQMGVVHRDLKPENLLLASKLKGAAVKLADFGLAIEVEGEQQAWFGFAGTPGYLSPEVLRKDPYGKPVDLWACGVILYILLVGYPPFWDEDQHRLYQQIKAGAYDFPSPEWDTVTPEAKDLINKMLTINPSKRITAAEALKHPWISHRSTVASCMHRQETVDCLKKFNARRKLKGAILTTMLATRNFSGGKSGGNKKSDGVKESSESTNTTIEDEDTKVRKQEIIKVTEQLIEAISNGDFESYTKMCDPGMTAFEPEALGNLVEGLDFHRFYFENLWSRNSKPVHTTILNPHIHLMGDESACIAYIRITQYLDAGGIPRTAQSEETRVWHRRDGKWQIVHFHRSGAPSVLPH
| SMILES | inhibition |
| --- | --- |
| C[C@@H]1OC(O)[C@H](O)[C@H](O)[C@H]1O (some centres unmarked) | 10% |
| COc1cc(OC)c2c(=O)cc(-c3ccccc3)oc2c1 | 5% |
| CCCN(CCC)S(=O)(=O)c1ccc(C(=O)O)cc1 | 0% |
| COc1cc2ccc(=O)oc2cc1OC | -11% |
| C[C@@]12CC[C@@H]3[C@@](CC[C@H]4[C@@]3(C)CCC[C@@]4(C)C(=O)O)(CC1=O)C2 | 9% |

Block 3 — mode: inhibitor; tested at: 10 µM; relative to: control
Target: Diamine acetyltransferase 1 (Homo sapiens, UniProt P21673)
Construct (P21673 1-171): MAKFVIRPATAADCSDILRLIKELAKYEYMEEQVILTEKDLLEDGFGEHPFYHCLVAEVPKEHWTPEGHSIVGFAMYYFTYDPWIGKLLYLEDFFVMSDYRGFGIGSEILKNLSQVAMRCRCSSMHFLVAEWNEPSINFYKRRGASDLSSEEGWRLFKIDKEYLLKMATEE
| SMILES | remaining activity |
| --- | --- |
| O=C(O)C[C@@H](O)C(=O)O | 108% |
| COc1c(/C=C/C(=O)c2ccc(O)cc2)ccc(O)c1O | 113% |
| O=C(/C=C/c1ccc(O)c(O)c1)O[C@@H]1C[C@](OC(=O)/C=C/c2ccc(O)c(O)c2)(C(=O)O)C[C@@H](O)[C@H]1O | 75.8% |

Block 4 — tested at: 1 µM
Structure (SMILES): Cc1nccc(COC(=O)N2C[C@@H]3[C@@H](CNC(=O)c4ccc5[nH]nnc5c4)[C@@H]3C2)n1
| target | effect on | technique | remaining binding [%] |
| --- | --- | --- | --- |
| ALK (Homo sapiens, UniProt Q9UM73, L1196M) | cell-free assay | competition with immobilised ligand | 93 |
| HIPK4 (Homo sapiens, UniProt Q8NE63) | cell-free assay | competition with immobilised ligand | 84 |
| CDC42BPG (Homo sapiens, UniProt Q6DT37) | – | competition binding | 92 |
| EIF2AK1 (Homo sapiens, UniProt Q9BQI3) | cell-free assay | competition with immobilised ligand | 100 |
| CSNK1G3 (Homo sapiens, UniProt Q9Y6M4) | cell-free assay | competition with immobilised ligand | 100 |
| MYLK3 (Homo sapiens, UniProt Q32MK0) | cell-free assay | competition with immobilised ligand | 97 |
| CAMK1G (Homo sapiens, UniProt Q96NX5) | cell-free assay | competition with immobilised ligand | 100 |
| STK17A (Homo sapiens, UniProt Q9UEE5) | cell-free assay | competition with immobilised ligand | 79 |
| CAMK1D (Homo sapiens, UniProt Q8IU85) | cell-free assay | competition with immobilised ligand | 100 |
| NTRK3 (Homo sapiens, UniProt Q16288) | cell-free assay | competition with immobilised ligand | 90 |
| PIK3CA (Homo sapiens, UniProt P42336, I800L) | cell-free assay | competition with immobilised ligand | 73 |
| PLK4 (Homo sapiens, UniProt O00444) | cell-free assay | competition with immobilised ligand | 83 |
| IKBKB (Homo sapiens, UniProt O14920) | cell-free assay | competition with immobilised ligand | 96 |
| CHEK2 (Homo sapiens, UniProt O96017) | cell-free assay | competition with immobilised ligand | 100 |
| FRK (Homo sapiens, UniProt P42685) | cell-free assay | competition with immobilised ligand | 100 |
| LRRK2 (Homo sapiens, UniProt Q5S007) | cell-free assay | competition with immobilised ligand | 100 |

Block 5 — organism: Sarcocystis neurona; effect on: parasite growth; tested at: 10 µM; time: 96 h; setting: second screen; relative to: untreated
| Compound | log2 fold change |
| --- | --- |
| COC1=CC(=O)C[C@@H](C)[C@]12Oc1c(Cl)c(OC)cc(OC)c1C2=O | 0.56 |
| O=C1[C@H](CC[C@H](O)c2ccc(F)cc2)[C@@H](c2ccc(O)cc2)N1c1ccc(F)cc1 | -0.19 |
| CC(=O)OCC(=O)[C@@]1(O)CC[C@H]2[C@@H]3CCC4=CC(=O)CC[C@]4(C)[C@H]3[C@@H](O)C[C@@]21C | -0.21 |
| CN(C)CCc1c[nH]c2ccc(C[C@H]3COC(=O)N3)cc12 | 0.3 |
| O=C(O)c1cc(=O)c2c(OCC(O)COc3cccc4oc(C(=O)O)cc(=O)c34)cccc2o1 | 0.39 |
| COc1ccccc1OCC(O)CN1CCN(CC(=O)Nc2c(C)cccc2C)CC1 (centres unmarked) | 0.23 |

Excerpt of the above (block 4):
| target | effect on | technique | remaining binding [%] |
| --- | --- | --- | --- |
| NTRK3 (Homo sapiens, UniProt Q16288) | cell-free assay | competition with immobilised ligand | 90 |
| PIK3CA (Homo sapiens, UniProt P42336, I800L) | cell-free assay | competition with immobilised ligand | 73 |
| PLK4 (Homo sapiens, UniProt O00444) | cell-free assay | competition with immobilised ligand | 83 |
| IKBKB (Homo sapiens, UniProt O14920) | cell-free assay | competition with immobilised ligand | 96 |
| CHEK2 (Homo sapiens, UniProt O96017) | cell-free assay | competition with immobilised ligand | 100 |
